# Experimental data of several laboratories.
# Each numbered part is a random draw from the data of one study; scales do not carry over between parts. Substitutions count along the parent as printed.

# Block 1 — technique: RNA Bind-n-Seq; molecule type: RNA; medium: in vitro; tested at: 365 nM; relative to: no-protein control; reading: higher = stronger binding
# Target: RNA binding protein fox-1 homolog 2, RRM domain, GST-SBP tag (RBFOX2, Homo sapiens, UniProt O43251-10, residues 100-194)
# Notes: natural RNA segment, single round, ends assumed
# Residues (chain): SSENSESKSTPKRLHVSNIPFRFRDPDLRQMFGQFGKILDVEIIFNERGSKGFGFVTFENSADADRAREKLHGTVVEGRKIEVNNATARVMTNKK
Oligonucleotide,RBNS enrichment (R)
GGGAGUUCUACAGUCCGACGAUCGACAGUACACACCUAGUGUAUUGUCACUGAAGUCUUAGGUUUAACUUUGACAUCACAGGUCCCUUCCAGGGGUACCACUGGGUAGCUGCAGUGUGCACCGGUCACUACAUUGGAAUUCUCGGGUGCCAA,0.23
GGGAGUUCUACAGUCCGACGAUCCCAGUCGGACAGACGUCCCGCCACCCACCACCCCUCACAGGACGUCCGCUCAGCACACGCCUUGUUACGAGCAAGUGCCGGCUGGACCCAAGCCCUGCAUCCCCACAUGCUGGAAUUCUCGGGUGCCAA,0.393
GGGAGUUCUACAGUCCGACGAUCACAAAUGUAUUUUCAGUGAGUCUGAGUCGGGUGUAUGUGGGUUUUUUGGUUCUUGGCUUGGGGCUUUUUGUUGUUGUUGUUCUUAAUAAUAUGAGAAUCCAGUUCUCAUGUGGAAUUCUCGGGUGCCAA,1.94
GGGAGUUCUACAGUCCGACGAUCGGCCUCCUCUCGCCUGGCCGCCAGCCCCAGCCCCAGCCCCAGCCCCAGGCCCAGCUGCCUUUGGCUUUGAUCUCAAGUCAGGCUGAAGGCAGCGAAGCCUCGGGGCCCAAUGGAAUUCUCGGGUGCCAA,0.168
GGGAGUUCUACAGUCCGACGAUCAAUCGUGAACUGCUGCUGUAUGGCUAGACUUUGCCUAUUUACUCUGUUAUGCAAACAGUAAUUUUUCCCUAUGUUAUGAAGAGAGACAUAUUGGCUUGCUUUAAUUUACUUGGAAUUCUCGGGUGCCAA,0.874
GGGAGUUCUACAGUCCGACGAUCUUGUAAACCCACAGUUGUAAGCUUAGUGACUUCACAUGUAUGUAGCAUUGGUACUGGUCUGAGCCACCUGCUACCCAGUAGAUAGAUAACCUUUUUGUUAGUGUUUAAGGUGGAAUUCUCGGGUGCCAA,1.16
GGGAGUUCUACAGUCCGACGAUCCCUGCCCCCACCUUCCCAGUCCCACAGGCCACCCCUGGCUUGGGCUGGGUUCUGUGAAGUUACGUAUUUAUUGAGCUUUUGGUUCUUUUAUAAAGACUUGUCUAGACUCCUGGAAUUCUCGGGUGCCAA,0.307
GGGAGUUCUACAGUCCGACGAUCCUGCCUCAAGGCUUGGUUCCUGGAAAGUAAAGGUGAAAACAUCCCCUUUCACCCCUCUGCAAAACAAACAAGCAACAUCCUCAAAACCCAACCCCAUGCCUCACAGAGCUUGGAAUUCUCGGGUGCCAA,0.436
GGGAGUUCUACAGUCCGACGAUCUGUACACUUUUAGAGUUAUAGUGCCUGAUAAUAUUUUUUGAGAGCCUUUAAUAUGAUAUAGGAAGGCAGAUACAUUGAUAUCACUUGUAGAACUACUUUGGAAUUUAUCUUGGAAUUCUCGGGUGCCAA,0.623
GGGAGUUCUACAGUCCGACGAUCAGGAGGGAUGACUCCUGACCACACUGUUGAAGGCUUGCUCUUGUCAAAUACUCUGUCUGCUAUGGAAAGUUCCAGUGUGCUGACUGGUCUGUGAUUUUGUACCUUGUGAAUGGAAUUCUCGGGUGCCAA,0.71
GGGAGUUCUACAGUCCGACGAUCGUCUCCACCAUUGUGGAUGGAGGGGGUCUCUGUGCUAGGAGACUCUAUAGACUGCCUCCAGCCGCCCUCCAGUGCUGUGGAGAGACUGUCCCCAGCCUGAGGGACUCUCCUGGAAUUCUCGGGUGCCAA,0.378
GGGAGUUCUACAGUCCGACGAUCAGUAUCAUGGGACUUGUGACAAUACAAGACAUGAAUCUAUGUAUAAAAUUUAUCGGCCUUUCUCAUUUACCUGCUCUAGUAUUAUUGUAUUGUGUGUGCGUGCGUGUGUGUGGAAUUCUCGGGUGCCAA,0.669

# Block 2 — technique: protein binding microarray; molecule type: double-stranded DNA, one strand shown; medium: in vitro; tested at: not given; relative to: not given; reading: higher = stronger binding
# Target: Histone acetyltransferase KAT6A, both winged helices, GST fusion (KAT6A, Homo sapiens, UniProt Q92794, residues 1-181)
# Notes: 8-mer, flanks averaged, mean of 2 arrays, mostly near background
# Residues (chain): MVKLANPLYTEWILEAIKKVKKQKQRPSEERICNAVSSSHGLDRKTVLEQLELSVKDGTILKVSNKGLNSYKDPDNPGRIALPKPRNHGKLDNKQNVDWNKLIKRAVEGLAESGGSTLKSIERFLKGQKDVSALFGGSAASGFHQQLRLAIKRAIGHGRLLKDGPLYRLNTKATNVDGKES
Oligonucleotide,E-score
GCATGCAA,0.0219
GATCACCA,0.039
AAATTCTC,-0.00451
TAAATACA,0.0336
ACTTGGAC,0.0192
CCCGGTGC,0.168
CTAGTGGA,-0.165
AGTGCGTC,0.0815
AGGTGGAA,-0.158
CAGCATAG,-0.0784
GAATACTC,-0.0299
GAAACAGC,-0.0287
AACGTGTG,-0.142
GGGTTGCA,0.0449
ATACGTGG,0.0105
AGGTCCAG,-0.121
TAAATCTA,-0.0652
GAGGCCCA,-0.0592
AGGAAAGG,-0.192
ACCGCTCC,0.221
GGTCCATA,-0.0466
CCACTAAA,-0.172

# Block 3 — technique: protein-binding microarray; molecule type: double-stranded DNA, one strand shown; medium: in vitro; tested at: 0.8 µM; notes: whole 60-bp probe, no competitor; reading: higher = stronger binding
# Target: Centromere-binding protein 1, full length, N-terminal tag (CBF1, Saccharomyces cerevisiae, UniProt P17106, residues 1-351)
# Sequence of UniProt P17106 (whole entry, looked up): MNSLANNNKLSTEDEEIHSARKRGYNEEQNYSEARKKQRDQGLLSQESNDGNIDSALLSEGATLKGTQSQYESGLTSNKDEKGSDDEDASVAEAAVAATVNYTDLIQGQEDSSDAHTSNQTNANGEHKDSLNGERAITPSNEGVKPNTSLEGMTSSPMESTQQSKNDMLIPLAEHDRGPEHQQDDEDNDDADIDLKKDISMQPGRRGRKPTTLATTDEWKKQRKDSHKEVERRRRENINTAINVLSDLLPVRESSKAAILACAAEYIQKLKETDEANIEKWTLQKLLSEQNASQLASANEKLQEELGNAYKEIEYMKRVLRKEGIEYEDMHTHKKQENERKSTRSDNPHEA
Oligonucleotide,fluorescence intensity [a.u.]
GAATTATTAAGTCATCCGCACGTGGAACTCACATAGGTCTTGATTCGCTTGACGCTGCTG,2240
GAATTAGTATAAAGTCACGCAAACGGATCTCTGTAGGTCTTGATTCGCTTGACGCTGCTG,711
CTACGAGGCTGCGTTAGCGTCACCTAGAAATCCTTCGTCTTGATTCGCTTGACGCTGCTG,527
CTAAGTGTTGATTGAGACGTGTTGTGTTTAAACTTCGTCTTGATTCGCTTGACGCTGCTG,555
TGTACGAAGCTATGTCAGGTGAATATAGTAGTTAGGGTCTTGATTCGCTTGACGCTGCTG,928
CTAAAATTACCGTCGCTCGTGATTTGTTTGCAATTCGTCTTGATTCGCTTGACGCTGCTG,1120
CTATTGTGAATTCTTCGCGTGGAGTAATTCTAGTTCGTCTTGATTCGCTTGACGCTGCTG,569
CTAAGAGCAGTTCCTCAGGTGTTTCTTGTTACTTTCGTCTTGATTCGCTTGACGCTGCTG,523
GAAGTGGATGGTGCTGGTAACATCAAGCTGACCTAGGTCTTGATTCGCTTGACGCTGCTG,511
GAACTTTATAGAGAAAATCTGATGCAGCAAGATTAGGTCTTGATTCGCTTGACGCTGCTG,547
CTATTTAAATCGTGACATGTGCTTTAATAGAAATTCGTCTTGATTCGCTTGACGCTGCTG,1900
CCTAACTACTATACAGGTGTAATATAGCTTCGTACAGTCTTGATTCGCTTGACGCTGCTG,548
GAAGCAGAATTTGTCCGTGCGCACATTTGCGTGTAGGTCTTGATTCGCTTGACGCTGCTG,561
CTAATGAACAGACACCACCATTGCTTCTTCTGCTTCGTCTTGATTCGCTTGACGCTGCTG,531
GAAAATTTCCTCTACGTGATGGTTGTATGTAAATAGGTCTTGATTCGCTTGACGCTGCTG,626
CTATGAGGAAAAAATCACGTTAAATAGTTTCATTTCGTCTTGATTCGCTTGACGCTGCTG,665
CTACTATTTCAGATTCGCGTGCGCTTCCTTTATTTCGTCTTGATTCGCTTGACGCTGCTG,530
GAATTTCACAATCTTCACGTTCGTTGAAAGCTATAGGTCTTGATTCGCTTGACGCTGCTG,528
GAAATGTAAAAATGTCTCCTGTGACTTTCATTATAGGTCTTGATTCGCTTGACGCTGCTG,567
CTAATTTGTCGTTGTGACCACAAAAAAGAATTCTTCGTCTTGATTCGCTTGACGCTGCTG,818
CTAAATAATGGAACTGACGTCGTCAATTACCGGTTCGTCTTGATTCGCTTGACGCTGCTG,480
CTATTTTTCATTCACGTGTGCAGCCACGTGCGGTTCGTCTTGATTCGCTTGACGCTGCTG,16100
GAAGCATGCTGCAAAGACGTGCCTTCGATGCTCTAGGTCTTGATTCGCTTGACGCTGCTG,478
CTACACCATAGGCACCACCACTGTTTGTGTAAATTCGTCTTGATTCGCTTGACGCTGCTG,497

# Block 4 — target: CCND3, cyclin fold, Cln2 fusion (human); technique: yeast growth competition, sequencing; medium: yeast; notes: weak parent motif; relative to: not given; reading: higher = stronger binding
# Parent: SAMHD1 docking peptide (human); ASKSRVQLFKDDP; partner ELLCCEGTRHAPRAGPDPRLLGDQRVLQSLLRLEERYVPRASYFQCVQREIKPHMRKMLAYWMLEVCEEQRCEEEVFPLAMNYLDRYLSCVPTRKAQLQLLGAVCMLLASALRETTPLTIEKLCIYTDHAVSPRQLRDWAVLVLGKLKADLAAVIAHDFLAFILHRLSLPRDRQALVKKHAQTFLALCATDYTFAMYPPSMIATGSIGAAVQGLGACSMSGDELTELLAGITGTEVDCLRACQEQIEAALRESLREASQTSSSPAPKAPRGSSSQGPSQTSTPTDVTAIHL
Substitution,normalised enrichment score
ASKSRVQLMKDDP [F9M],0.209
ASMSRVQLFKDDP [K3M],0.13
ASKSRVQDFKDDP [L8D],0.00425
ALKSRVQLFKDDP [S2L],0.0796
ASKSRVQLFKDPP [D12P],0.117
ASKSRVQLFKDRP [D12R],0.0549
ASKSRVQYFKDDP [L8Y],0.237
ASKQRVQLFKDDP [S4Q],0.0701
ASKSRSQLFKDDP [V6S],-0.511
ASKSRVQLFKDIP [D12I],0.281
ASKSRVQLFKDKP [D12K],-0.0346
ASKSRVQLFEDDP [K10E],0.269
ADKSRVQLFKDDP [S2D],0.17
ASKSHVQLFKDDP [R5H],0.0524
ASKSRVQLFKQDP [D11Q],-0.0914
ASKSCVQLFKDDP [R5C],0.385
ASKSRVQLFKDTP [D12T],0.0571
ASKSRVYLFKDDP [Q7Y],0.335
ASKSRMQLFKDDP [V6M],-0.0549
ASKSRRQLFKDDP [V6R],0.199
ASKSMVQLFKDDP [R5M],-0.258
ASKSRVQLFKPDP [D11P],0.274
AKKSRVQLFKDDP [S2K],0.104
ASKYRVQLFKDDP [S4Y],0.164
ASKSRVQLFKDMP [D12M],0.048

# Mixed results
Substance,target,assay,system,setting,scale,quantity,result
"PhoQ, residues 284 288 289 292 302 303 SNSSNI","PhoP, residues 12 14 15 18 19 AQCLL (Escherichia coli, UniProt P23836)","Sort-seq, item: YFP reporter",E. coli,"PhoQ-PhoP variant library, with: 10 µM Mg2+","relative to: high Mg2+ state, higher = stronger signaling",fold induction,3.51
